Measured values pooled from the literature.
Each numbered part is a random draw from the data of one study; scales do not carry over between parts.
Sequence of UniProt P21802 (whole entry, looked up): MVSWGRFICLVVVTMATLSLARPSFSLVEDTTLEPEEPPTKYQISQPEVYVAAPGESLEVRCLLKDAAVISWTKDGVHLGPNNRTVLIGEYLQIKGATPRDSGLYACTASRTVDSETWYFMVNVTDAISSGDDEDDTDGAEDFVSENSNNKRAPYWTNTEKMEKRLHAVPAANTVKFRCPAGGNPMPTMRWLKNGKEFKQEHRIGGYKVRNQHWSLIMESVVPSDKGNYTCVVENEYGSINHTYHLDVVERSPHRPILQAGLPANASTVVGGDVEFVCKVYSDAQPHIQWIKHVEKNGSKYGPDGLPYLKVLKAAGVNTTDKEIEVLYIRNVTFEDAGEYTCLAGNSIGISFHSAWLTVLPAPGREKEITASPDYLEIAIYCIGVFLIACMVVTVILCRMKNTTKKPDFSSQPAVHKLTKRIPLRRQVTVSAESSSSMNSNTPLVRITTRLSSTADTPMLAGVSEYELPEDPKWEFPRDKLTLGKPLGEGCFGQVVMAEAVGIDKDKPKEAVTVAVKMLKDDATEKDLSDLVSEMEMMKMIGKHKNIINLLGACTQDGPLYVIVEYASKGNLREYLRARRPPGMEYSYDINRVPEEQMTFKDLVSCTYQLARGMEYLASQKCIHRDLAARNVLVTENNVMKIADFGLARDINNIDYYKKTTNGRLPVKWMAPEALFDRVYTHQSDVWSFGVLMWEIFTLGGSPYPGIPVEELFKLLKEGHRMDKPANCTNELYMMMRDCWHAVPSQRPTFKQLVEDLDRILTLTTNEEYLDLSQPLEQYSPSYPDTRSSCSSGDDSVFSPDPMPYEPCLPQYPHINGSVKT
Sequence of UniProt P45985 (whole entry, looked up): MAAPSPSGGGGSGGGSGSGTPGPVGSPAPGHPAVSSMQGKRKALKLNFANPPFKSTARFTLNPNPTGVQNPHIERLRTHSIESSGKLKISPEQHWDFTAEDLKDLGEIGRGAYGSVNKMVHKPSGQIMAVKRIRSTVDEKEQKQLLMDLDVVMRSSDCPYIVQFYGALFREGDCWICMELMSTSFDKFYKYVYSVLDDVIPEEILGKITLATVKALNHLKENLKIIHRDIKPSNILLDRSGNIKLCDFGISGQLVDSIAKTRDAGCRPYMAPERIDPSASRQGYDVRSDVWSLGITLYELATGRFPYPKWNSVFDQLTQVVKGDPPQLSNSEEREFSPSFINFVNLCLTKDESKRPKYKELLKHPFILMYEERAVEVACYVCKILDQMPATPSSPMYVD
Sequence of UniProt Q15418 (whole entry, looked up): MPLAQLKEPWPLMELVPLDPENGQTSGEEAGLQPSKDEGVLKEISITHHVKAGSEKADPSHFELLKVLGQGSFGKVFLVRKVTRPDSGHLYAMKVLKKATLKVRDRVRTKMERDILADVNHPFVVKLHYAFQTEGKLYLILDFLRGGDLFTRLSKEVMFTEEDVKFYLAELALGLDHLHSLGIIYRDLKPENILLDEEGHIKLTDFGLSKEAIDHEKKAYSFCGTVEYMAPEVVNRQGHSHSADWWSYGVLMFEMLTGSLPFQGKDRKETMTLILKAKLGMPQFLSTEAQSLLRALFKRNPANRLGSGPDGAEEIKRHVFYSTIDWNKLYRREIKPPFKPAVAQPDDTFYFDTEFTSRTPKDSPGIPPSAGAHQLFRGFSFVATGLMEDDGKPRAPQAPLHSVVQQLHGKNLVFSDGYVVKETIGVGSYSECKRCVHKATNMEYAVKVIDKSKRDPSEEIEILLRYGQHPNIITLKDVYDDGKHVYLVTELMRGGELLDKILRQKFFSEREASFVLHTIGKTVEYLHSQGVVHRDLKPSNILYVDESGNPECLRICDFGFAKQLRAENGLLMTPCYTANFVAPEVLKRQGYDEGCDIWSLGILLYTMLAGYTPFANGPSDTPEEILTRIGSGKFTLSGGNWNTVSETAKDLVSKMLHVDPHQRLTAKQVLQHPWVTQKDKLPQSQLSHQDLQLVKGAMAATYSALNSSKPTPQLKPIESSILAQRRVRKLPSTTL
Sequence of UniProt P08581 (whole entry, looked up): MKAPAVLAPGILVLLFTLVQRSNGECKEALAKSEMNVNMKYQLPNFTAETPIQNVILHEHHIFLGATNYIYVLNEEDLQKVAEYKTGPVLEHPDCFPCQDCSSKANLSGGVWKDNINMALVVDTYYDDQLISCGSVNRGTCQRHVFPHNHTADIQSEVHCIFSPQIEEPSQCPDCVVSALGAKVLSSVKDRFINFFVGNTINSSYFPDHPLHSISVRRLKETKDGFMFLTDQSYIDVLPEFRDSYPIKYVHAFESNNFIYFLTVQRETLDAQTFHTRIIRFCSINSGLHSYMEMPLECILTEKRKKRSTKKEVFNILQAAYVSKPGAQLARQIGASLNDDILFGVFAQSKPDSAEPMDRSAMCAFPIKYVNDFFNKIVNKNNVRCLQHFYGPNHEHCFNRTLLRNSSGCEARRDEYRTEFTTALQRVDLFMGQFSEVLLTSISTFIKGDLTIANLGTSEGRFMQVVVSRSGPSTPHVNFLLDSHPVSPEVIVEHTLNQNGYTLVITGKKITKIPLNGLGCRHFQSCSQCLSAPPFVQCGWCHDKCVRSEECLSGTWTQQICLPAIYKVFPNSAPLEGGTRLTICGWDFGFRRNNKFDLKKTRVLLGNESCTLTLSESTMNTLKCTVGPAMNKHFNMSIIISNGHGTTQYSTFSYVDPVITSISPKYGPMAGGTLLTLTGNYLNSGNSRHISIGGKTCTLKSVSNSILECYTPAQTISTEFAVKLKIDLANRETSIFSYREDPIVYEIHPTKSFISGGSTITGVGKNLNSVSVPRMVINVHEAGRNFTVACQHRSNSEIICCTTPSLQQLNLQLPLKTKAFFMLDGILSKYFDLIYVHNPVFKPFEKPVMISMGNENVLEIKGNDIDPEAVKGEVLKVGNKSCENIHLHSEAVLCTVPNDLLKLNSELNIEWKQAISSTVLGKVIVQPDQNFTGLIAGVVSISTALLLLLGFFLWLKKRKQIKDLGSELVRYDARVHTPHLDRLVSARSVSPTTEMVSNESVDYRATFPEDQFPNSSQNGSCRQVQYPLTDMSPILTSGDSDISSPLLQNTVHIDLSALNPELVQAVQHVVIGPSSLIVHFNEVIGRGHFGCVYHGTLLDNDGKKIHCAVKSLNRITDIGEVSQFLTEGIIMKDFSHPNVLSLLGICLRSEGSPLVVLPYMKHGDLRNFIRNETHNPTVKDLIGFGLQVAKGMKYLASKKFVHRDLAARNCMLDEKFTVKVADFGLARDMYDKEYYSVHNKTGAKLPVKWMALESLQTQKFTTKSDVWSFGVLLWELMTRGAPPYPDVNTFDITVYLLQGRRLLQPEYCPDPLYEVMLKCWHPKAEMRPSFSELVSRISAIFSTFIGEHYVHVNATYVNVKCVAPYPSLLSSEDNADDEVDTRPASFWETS

Sample 1 — action: antagonist
Target: Beta-1 adrenergic receptor (ADRB1, Homo sapiens, UniProt P08588)
Sequence of UniProt P08588 (whole entry, looked up): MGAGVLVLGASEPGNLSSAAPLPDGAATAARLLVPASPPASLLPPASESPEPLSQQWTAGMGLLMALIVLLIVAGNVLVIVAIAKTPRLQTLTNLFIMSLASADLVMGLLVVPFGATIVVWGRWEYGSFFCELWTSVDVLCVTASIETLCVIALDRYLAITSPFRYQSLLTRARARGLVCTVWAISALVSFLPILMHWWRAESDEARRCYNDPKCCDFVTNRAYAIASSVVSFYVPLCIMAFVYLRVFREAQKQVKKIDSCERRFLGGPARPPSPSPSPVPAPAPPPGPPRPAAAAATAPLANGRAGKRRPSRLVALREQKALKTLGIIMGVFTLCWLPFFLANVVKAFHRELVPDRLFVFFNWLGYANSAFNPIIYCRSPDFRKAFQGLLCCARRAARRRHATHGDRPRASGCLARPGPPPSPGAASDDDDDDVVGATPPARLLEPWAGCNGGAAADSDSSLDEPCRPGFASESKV
SMILES	IC50
CN(C)c1ccc(CNC2(Cc3cc(-c4ccc(F)cc4)on3)COC2)cc1	≥ 100 µM
Cn1c(=O)n(-c2ccc(N3CCN(C(=O)OC(C)(C)C)CC3)c(C(F)(F)F)c2)c2c3cc(-c4cncc(Cl)c4)ccc3ncc21	≥ 100 µM
[O-][n+]1cccc(-c2nc3c(Cl)cccc3cc2[C@@H](Nc2ncnc3cccnc23)C(F)(F)F)c1	≥ 100 µM
OC(CNc1nccc(-c2cccnc2)n1)COc1ccc(Cl)cc1 (stereo not drawn)	≥ 100 µM

Sample 2 — read-out: cell-free assay; technique: competition with immobilised ligand; tested at: 1 µM
SMILES: COc1ccc2c(c1)O[C@H](c1ccc(OC)c(OC)c1)C[C@@H]2NC(=O)C1(c2ccc3c(c2)OC(F)(F)O3)CC1
target	remaining binding
MAP2K4 (Homo sapiens, UniProt P45985)	100%
EGFR (Homo sapiens, UniProt P00533, del752-759)	100%
MET (Homo sapiens, UniProt P08581)	87%
FGFR3 (Homo sapiens, UniProt P22607)	100%
FGFR2 (Homo sapiens, UniProt P21802)	92%
Ribosomal protein S6 kinase alpha-1, N-terminal kinase domain (RPS6KA1, Homo sapiens, UniProt Q15418)	100%

Sample 3 — cell line: mouse MPNST tumor cells; technique: high-content nuclear imaging; refers to: cell number; tested at: 10 µM; time: 12 h; notes: mean of 2 replicates; relative to: plate mean; reading: higher = more cells
Compound	nuclei count
CCc1ccc(/C=C2/SC(=S)NC2=O)cc1	2.09 z-score
OC(CN1CCC(Cc2ccc(F)cc2)CC1)c1ccc(Cl)cc1 (stereo not drawn)	-0.00918 z-score
CCCCOc1cc(C(=O)NCCN(CC)CC)c2ccccc2n1	-3.59 z-score
CC[C@H]1OC(=O)[C@H](C)[C@@H](O[C@H]2C[C@@](C)(OC)[C@@H](O)[C@H](C)O2)[C@H](C)[C@@H](O[C@@H]2O[C@H](C)C[C@H](N(C)C)[C@H]2O)[C@](C)(OC)C[C@@H](C)C(=O)[C@H](C)[C@@H](O)[C@]1(C)O	2.33 z-score

Sample 4 — read-out: enzyme activity; action: inhibitor; tested at: 0.5 µM; relative to: control
Target: Dual specificity protein kinase CLK1 (CLK1, Homo sapiens, UniProt P49759)
Sequence of UniProt P49759 (whole entry, looked up): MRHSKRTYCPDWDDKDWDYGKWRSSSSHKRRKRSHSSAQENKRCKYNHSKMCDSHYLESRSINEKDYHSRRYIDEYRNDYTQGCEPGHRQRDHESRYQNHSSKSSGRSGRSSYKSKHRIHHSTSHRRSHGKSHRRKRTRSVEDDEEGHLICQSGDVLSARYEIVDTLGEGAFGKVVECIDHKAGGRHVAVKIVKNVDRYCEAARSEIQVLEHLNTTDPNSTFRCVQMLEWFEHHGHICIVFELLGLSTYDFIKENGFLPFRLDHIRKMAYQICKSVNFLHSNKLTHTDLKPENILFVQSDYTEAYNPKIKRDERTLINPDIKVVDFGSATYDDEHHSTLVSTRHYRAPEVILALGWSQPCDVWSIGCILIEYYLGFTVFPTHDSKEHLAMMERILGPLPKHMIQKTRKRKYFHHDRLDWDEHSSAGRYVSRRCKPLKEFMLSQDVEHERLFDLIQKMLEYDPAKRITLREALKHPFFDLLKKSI
Compound	remaining activity [%]
O=C1NC(=O)C(c2cn(CCCO)c3ncccc23)=C1c1cnccn1	88.5
Oc1ccc(-c2nc(-c3ccncc3)c(-c3ccc(F)cc3)[nH]2)cc1	107
COc1ccc(C(=O)Nc2sc3c(c2C(N)=O)CCCC3)cc1OC	96.9
COc1cc2ncnc(Nc3ccc(Oc4ccccc4)cc3)c2cc1OC	100
NCCNc1ncc(C(N)=O)c(Nc2cccc(C(F)(F)F)c2)n1	112
Cn1c2ccccc2c2c3c(c4c5ccccc5n(CCC#N)c4c21)CNC3=O	69.9
O=C(CCCc1ccc(-c2ccccc2F)cc1)Nc1ccc(O)cc1	101
CN(C)c1ccc(C=C2C(=O)Nc3ccccc32)cc1	103
Cc1ccc(Nc2nccc(N(C)c3ccc4c(C)n(C)nc4c3)n2)cc1S(N)(=O)=O	103
Cn1sc(=O)n(Cc2ccccc2)c1=O	112
Nc1[nH]nc2nc3ccccc3nc12	99.2
Cc1cccc(-c2[nH]c(C(C)(C)C)nc2-c2ccc3c(c2)OCO3)n1	98
N#CC(C#N)=C(N)/C(C#N)=C/c1ccc(O)cc1	96.5
COc1cc2nccc(Oc3ccc(NC(=S)NC(=O)c4ccccc4C)cc3)c2cc1OC	89.9
CC(C)[C@H](CO)Nc1nc(Nc2cc(N)cc(Cl)c2)c2ncn(C(C)C)c2n1	51.9

Sample 5 — species: mouse; sample: microsomes or S9; tested at: 2 µM; time: 0.5 h
SMILES	remaining compound [%]
Cc1ccc(C2C(C(=O)NC3CCCCC3)CCC(=O)N2C)cc1 (stereo not drawn)	9.07
Cc1cc([S+]([O-])c2ccccc2)c(C)n1S(=O)(=O)c1ccccc1 (stereo not drawn)	2.25
Oc1ccc(-c2nc(-c3ccc(F)c(F)c3)no2)cc1Cl	54.9
O=c1[nH]ncn2nc(-c3ccc(Cl)c(Cl)c3)cc12	> 99.9

Some of these lines once more (sample 5):
SMILES	remaining compound [%]
Oc1ccc(-c2nc(-c3ccc(F)c(F)c3)no2)cc1Cl	54.9
O=c1[nH]ncn2nc(-c3ccc(Cl)c(Cl)c3)cc12	> 99.9
Cc1ccc(C2C(C(=O)NC3CCCCC3)CCC(=O)N2C)cc1 (stereo not drawn)	9.07
